# Assay results from different studies.
# Each line is one published result; not all experiments were run side by side. Several values in a cell are separate wells, animals, samples, runs or records. Numbers after ± are the reported error.
SMILES,target or system,test,system,conditions,scale,measurement,result
[Cl-].[Cl-].[Pt+2].[Ru+2].c1ccc(-c2nc3cc4ccccc4cc3nc2-c2ccccn2)nc1.c1cnc2c(c1)ccc1cccnc12.c1cnc2c(c1)ccc1cccnc12,Danio rerio,,embryos,"15 µM, 12 h",,survival rate,100%
CCCCN(CCCC)CC(O)c1cc(Cl)cc2c1-c1ccc(Cl)cc1/C2=C/c1ccc(Cl)cc1 (stereo not shown),Plasmodium falciparum,,3D7,,baseline: HepG2 CC50 over IC50,selectivity index,> 13000
O=C(c1ccc(Cl)cc1)N1CCN2C(=O)N(OC(=O)N3CCOc4ccccc43)C(=O)C2C1 (stereo not shown),"Kallikrein-6 (Homo sapiens, UniProt Q92876)",MS-based ABPP,SW-620 conditioned medium,"10 µM, 1 h, 37 °C","baseline: compound over DMSO, lower = more inhibition",median protein ratio,0.96
OC(CCN1CC=C(c2ccc(F)cc2)CC1)c1ccc(F)c2ccccc12 (stereo not shown),Salmonella typhimurium,SOS/umu test,TA1535/pSK1002,"0.016 mg/mL, 4 h, without S9, full range",,survival,21.8%
COc1cccc(-c2n[nH]c(SCc3ccccn3)n2)c1OC,Escherichia coli,"Ames test, preincubation",WP2 uvrA,"0.25 mg/plate, without S9",,revertant colonies per plate,13
O=C(NCCN1CCCC1)c1cc(-c2ccc(CN3CCOCC3)cc2)nc2ccc(F)cc12,Plasmodium falciparum,18S rRNA qPCR,human,150 mg,,parasite clearance half-life,2.2 h and 4 h and 3.9 h and 3.5 h and 4.5 h
COc1ccnc(C(=O)N[C@H]2COC(=O)[C@H](Cc3ccccc3)[C@@H](OC(=O)C(C)C)[C@H](C)OC2=O)c1OCOC(=O)C(C)C,Pimephales promelas,mortality,,"water exposure, flow-through, 96 h",,LC50,1.79 ng/mL
O=c1ccc2ccccc2o1,NHEK,cell count,,"concentration not given, 6 h, heat and osmotic shock panel",,chance response,0.01%
CN(C(=O)n1cnc(-c2ccc[n+]([O-])c2)c1)C1CCCCC1,"Type-1 angiotensin II receptor (AGTR1, Homo sapiens, UniProt P30556)","radioligand binding, inhibitor",,50 µM,,inhibition,-1%
[Cl-].[Cl-].[Pt+2].[Ru+2].c1ccc(-c2nccnc2-c2ccccn2)nc1.c1cnc2c(c1)ccc1cccnc12.c1cnc2c(c1)ccc1cccnc12,Danio rerio,,embryos,"15 µM, 0 h",,survival rate,100%
O=C(NC(=O)c1ccccc1Cl)Nc1ccc(Cl)cc1,Ostrinia furnacalis,leaf dipping,,"50 mg/L, 96 h",,mortality,23.3 ± 1.6%
O=C(Nc1cnccc1Cl)N1CCN(Cc2ccc3c(c2)OC(F)(F)O3)CC1,"BAR/IMD domain-containing adapter protein 2 (Baiap2, Rattus norvegicus, UniProt Q6GMN2)","competitive ABPP with azido-FP probe, refers to: BAIAP2",rat brain membrane fraction,"10 µM, unit not given",baseline: DMSO,probe labelling,-2.1
[Cl-].[Cl-].[Pt+2].[Ru+2].c1ccc(-c2nc3ccccc3nc2-c2ccccn2)nc1.c1cnc2c(c1)ccc1cccnc12.c1cnc2c(c1)ccc1cccnc12,Danio rerio,,embryos,"60 µM, 48 h",,hatching rate,13.3 ± 6.1%
O=[N+]([O-])c1ccc(N2CCN(CCC(O)c3ccc(F)cc3)CC2)c(C(F)(F)F)c1 (stereo not shown),Salmonella typhimurium,"genotoxicity, SOS/umu test",TA1535/pSK1002,"0.031 mg/mL, 4 h, with S9, full range",,induction factor,2
Cc1cc(C(=O)NC(C)(C)COc2cccc3c2C(N)=NS(=O)(=O)N3)cc(C)n1,Escherichia coli,"Ames test, initial",WP2 uvrA,"150 µg/plate, with: rat liver S9",baseline: solvent control,revertant ratio,1
C[C@H]1CN(c2n[nH]c3nc(N[C@H]4CC[C@H](NS(=O)(=O)CCC(F)(F)F)CC4)ncc23)CCO1,"Serine/threonine-protein kinase N1 (PKN1, Homo sapiens, UniProt Q16512)","inhibitor, Kinobeads competition profiling",,0.8 µM,baseline: vehicle,relative abundance,1.11
Fc1ccc(C2=CCNCC2)cc1,Salmonella typhimurium,"genotoxicity, SOS/umu test",TA1535/pSK1002,"1 mg/mL, 4 h, without S9, full range",,induction factor,1.4
CC(=O)N1CCC(C(=O)N2CCN3C(=O)c4cc(-c5ccccc5)ccc4NC(=O)C3C2)CC1 (stereo not shown),Escherichia coli,,WP2 uvrA,"5.0 µg/plate, without S9",,revertants per plate,21.5
COc1cc2c(Oc3ccc4[nH]c(C)cc4c3F)ccnc2cc1OCC1(N)CC1,,,paediatric recurrent refractory sarcoma,8 mg/kg,,grade 1 or 2 ALP elevation,26.7%
O[C@@H](CNCCN1CCN(C(c2ccccc2)c2ccccc2)CC1)c1cc(Cl)cc2c1-c1ccc(Cl)cc1C2,Plasmodium falciparum,,3D7,,baseline: HepG2 CC50 over IC50,selectivity index,1910
O=[N+]([O-])c1ccc(N2CCC(NCCC(O)c3ccc(F)c4ccccc34)CC2)c(C(F)(F)F)c1 (stereo not shown),Salmonella typhimurium,SOS/umu test,TA1535/pSK1002,"0.031 mg/mL, 4 h, without S9, full range",,survival,56.3%
CO[C@H]1C[C@@H]2CC[C@@H](C)[C@@](O)(O2)C(=O)C(=O)N2CCCC[C@H]2C(=O)O[C@H]([C@H](C)C[C@@H]2CC[C@@H](OC(=O)NCCOCCOCCOCCOCCOCCOCCOCCOCCC(=O)N3CCc4cc(Cn5nc(-c6ccc7oc(N)nc7c6)c6c(N)ncnc65)ccc4C3)[C@H](OC)C2)C[C@@H](O)[C@H](C)/C=C(\C)[C@@H](O)[C@@H](OC)C(=O)[C@H](C)C[C@H](C)/C=C/C=C/C=C/1C,,,patients with advanced solid tumours,"intravenous, 12 mg weekly, any grade",,abdominal pain incidence,16.7%

# A few entries again:
SMILES,target or system,test,system,conditions,scale,measurement,result
O=C(NC(=O)c1ccccc1Cl)Nc1ccc(Cl)cc1,Ostrinia furnacalis,leaf dipping,,"50 mg/L, 96 h",,mortality,23.3 ± 1.6%
O=C(Nc1cnccc1Cl)N1CCN(Cc2ccc3c(c2)OC(F)(F)O3)CC1,"BAR/IMD domain-containing adapter protein 2 (Baiap2, Rattus norvegicus, UniProt Q6GMN2)","competitive ABPP with azido-FP probe, refers to: BAIAP2",rat brain membrane fraction,"10 µM, unit not given",baseline: DMSO,probe labelling,-2.1
[Cl-].[Cl-].[Pt+2].[Ru+2].c1ccc(-c2nccnc2-c2ccccn2)nc1.c1cnc2c(c1)ccc1cccnc12.c1cnc2c(c1)ccc1cccnc12,Danio rerio,,embryos,"15 µM, 0 h",,survival rate,100%
